Experimental data collected from several papers.
Protocols differ between the studies behind these lines. Values joined by “and” are separate records of one study, mostly repeats; a detail may differ. ± marks the error that the study gave.

With `C/C1=C/C(=O)O[C@@H]2C[C@@H](CC[C@H](C)/C=C\C=C\CC1)O[C@@](OCCc1ccccc1)([C@@H]1CSC(=O)N1)C2` the cell killing was 17% (MDA-MB-231; MTT; 1.0 µM).
For `Oc1cc(Cl)ccc1Oc1ccc(Cl)cc1Cl`, “point of departure” read 18.7 µM (HepG2; high content imaging, refers to: nuclei count; 24 h, expected PoD).
`COc1c(C)c2c(c(O)c1C/C=C(\C)CCC(=O)O)C(=O)OC2` gave an IC50 of 331 nM (Connective cancer cell lines; cell proliferation).
With `COc1c(CCC[P+](c2ccccc2)(c2ccccc2)c2ccccc2)cc2c(c1OC)OCO2.[I-]` the GI50 was -5.65 log M (M14; SRB).
`Cc1cnc2ccc3c(nc(N)n3C)c2n1` — result for “relative colony forming efficiency”: 95 ± 1% (BALB/c 3T3; 50 µM; relative to: solvent control).
`Oc1ccc(C(c2ccc(O)cc2)(C(F)(F)F)C(F)(F)F)cc1`: “S phase cells” 10.2 ± 2.55% (HepG2 spheroids; Hoechst flow cytometry; 0.01 µM, 96 h).
For `CC[C@H](C)[C@H](NC(=O)CNC(=O)[C@@H](N)CCCCN)C(=O)N[C@@H](CC(C)C)C(=O)N[C@@H](CCCCN)C(=O)N[C@@H](CCCNC(=N)N)C(=O)N[C@@H](CCC(=O)O)C(=O)N[C@@H](CCCCN)C(=O)N[C@@H](CCCNC(=N)N)C(=O)N[C@@H](CC(C)C)C(=O)N[C@@H](CCCNC(=N)N)C(=O)N[C@@H](CCCNC(=N)N)C(=O)N[C@@H](CCCCN)C(=O)N[C@@H](CC(N)=O)C(=O)N[C@H](C(=O)N[C@@H](Cc1c[nH]cn1)C(=O)N[C@@H](Cc1c[nH]c2ccccc12)C(=O)N1CCC[C@H]1C(=O)N[C@@H](CCC(=O)O)C(=O)N[C@@H](CCC(=O)O)C(=O)NCC(=O)N[C@@H](CCCCN)C(=O)N[C@@H](CC(C)C)C(=O)N[C@@H](CCCNC(=N)N)C(=O)N[C@@H](CCC(=O)O)C(=O)N[C@@H](Cc1ccccc1)C(=O)N[C@@H](Cc1ccccc1)C(=O)N[C@@H](Cc1ccccc1)C(=O)N[C@@H](Cc1ccccc1)C(=O)N[C@@H](CCC(=O)O)C(=O)N[C@@H](CC(C)C)C(=O)N[C@@H](CC(=O)O)C(=O)N[C@@H](CCC(=O)O)C(=O)N[C@@H](C)C(=O)N[C@@H](CCC(=O)O)C(=O)N[C@@H](CCCNC(=N)N)C(=O)N[C@H](C(=O)N[C@@H](CC(N)=O)C(=O)N[C@H](C(=O)O)C(C)C)C(C)C)C(C)C`, “log2 fold change” read 2.66 (HeLa (mitotic); protein phosphorylation, TMT phosphoproteomics, refers to: histone H3.1 Ser29; cell lysate; concentration not given, 15 min; relative to: treated over control).
For `CC(C)N1CCC(NC2CCN(c3cccc(-c4cc5cc(F)ccc5[nH]4)c3)CC2)CC1`, the GI50 was 1650 nM (EKVX).
`O=C1CCP(=S)(c2ccccc2)CC1` gave a selectivity index of 3.2 (HCT-116; MTT; 72 h; relative to: IC50 HaCaT over IC50 HCT-116).
`Cn1cncc1C1=CN(c2ncnc3[nH]cnc23)CCS1` has a CC50 of > 200000 nM (UACC-257; melanoma cell line).
`COc1ccc([C@H]2c3[nH]c4ccc(Cl)cc4c3CCN2C(=O)Oc2ccc(Cl)cc2)cc1` has an inhibition of 90% (human dermal fibroblasts with PBMC; cytokine secretion, refers to: sVEGF; 0.001 µM, 48 h).
`COc1ccc2c(c1)[nH]c1c(C)nccc12` gave a DNA methylation of 90.3% (DU-145; bisulfite pyrosequencing, refers to: RASSF1A promoter CpG site 14; 10 µM, 16 h).
With `CN(C)NC(=O)CCC(=O)O` the viability was 110% (OCI-Ly1; 1 µM, 120 h).
`O=C1N(Cc2ccccc2Cl)c2ccccc2C12NN=C(c1ccccc1)S2` (stereo not drawn) gave a fold change of 2.5 (MDA-MB-468; gene expression array, refers to: MT1F mRNA; 10 µM, 12 h; relative to: untreated, down).
For `Nc1ncnc2c1ncn2[C@@H]1O[C@@H]2COP(=O)(O)O[C@H]3[C@@H](O)[C@H](n4cnc5c(=O)[nH]cnc54)O[C@@H]3COP(=O)(O)O[C@H]2[C@H]1O`, “pathway fold enrichment” read 23.8 (HFF-1; RNA sequencing, refers to: Serine biosynthesis; downregulated pathway; relative to: Zika virus alone).
`Cn1cc2cc(C(F)(F)c3nnc4ccc(-c5cnn(C6CC6)c5)nn34)c(F)cc2n1` — result for “cells in S phase”: 4.09% and 6.79% and 4.31% (MKN-45; PI flow cytometry; 200 nM, 24 h).
Under “spheroid area increase”, `Cc1cc(C(C)(C)c2ccc(O)c(C)c2)ccc1O` is recorded as 123% (HepG2 spheroids; planimetry; 5 µM, 0 to 24 h; relative to: mean area of 72 h spheroids).
With `Cn1nccc1Nc1nccc(-c2ccn([C@H](CO)c3ccc(Cl)c(F)c3)c(=O)c2)n1` the PI-positive cells was 9.83 count and 12.2 count and 15.4 count (HCT116; IncuCyte; concentration not given, 40 (unit not given)).
For `C/C=C(/C)C(=O)O[C@H]1C(C)=C2[C@H]([C@@H]1OC(=O)CCCCCCC)[C@@](C)(OC(C)=O)C[C@H](OC(=O)CCC)[C@@]1(O)[C@H]2OC(=O)[C@@]1(C)O`, “log2 fold change” read 0.441 (HEK293T; RNA-seq, refers to: CBX4 mRNA; 10 µM, 6 h; relative to: vehicle).
`Cn1nccc1Nc1nccc(-c2cc3c(s2)C(C)(C)N(CCN2CCOCC2)C3=O)n1` gave a PI-positive cells of 29.4 count and 41.8 count and 44 count (HCT116; IncuCyte; concentration not given, 48 (unit not given)).
`CN1C(=O)[C@@]23C[C@]4([C@]56C[C@@]78SS[C@@](CO)(C(=O)N7[C@H]5Nc5ccccc56)N(C)C8=O)c5ccccc5N[C@@H]4N2C(=O)[C@]1(CO)SS3` has a viability of 0.631% (OCI-Ly1; 0.5 µM, 120 h).
The CC50 of `CCN(CC)c1ccc(C=NNC(=O)CSc2nc3ccccc3c(=O)n2Cc2ccc(S(N)(=O)=O)cc2)c(O)c1` is reported as > 100000 nM (OVCAR-3; NCI five-dose screen).
`COc1cc(C(=O)c2c[nH]c3cc(-c4cccc(O)c4)ccc23)cc(OC)c1OC` has a wound confluence of 100% (MDA-MB-231; scratch wound healing; 50 nM, 72 h).
`COc1cc([C@@H]2c3cc4c(cc3C[C@H]3COC(=O)[C@@H]32)OCO4)cc(OC)c1OC` — result for PCNA level: “decreased” (neuroblastoma M2 (+); western blot; IC50; relative to: untreated).
With `CN1CCN(C2(CNC3CCN(c4cccc(-c5cc6cc(F)ccc6[nH]5)c4)CC3)CCC2)CC1` the GI50 was 2190 nM (UACC-257).
`COc1cc(CCC[P+](c2ccccc2)(c2ccccc2)c2ccccc2)c(OC)c2c1OCO2.[I-]` has an LC50 of -4.22 log M (HOP-62; SRB).
`Nc1ncc(-c2nc(N3CCOCC3)nc(N3CCOCC3)n2)c(C(F)F)n1` gave a GI50 of 172 nM (SK-N-AS; 72 h).
Under “mRNA fold change”, `CCOC(=O)C1=C(N)N(c2ccc(C(=O)OCC)cc2)C(O)=C(C#N)C12C(=O)Nc1ccccc12` (stereo not drawn) is recorded as 0.275 (Caco-2; qRT-PCR, refers to: Bcl-2; IC50; relative to: untreated).
With `C[C@]12CC[C@H](O)C[C@H]1CC[C@@H]1[C@@H]2CC[C@]2(C)[C@@H](c3ccc(=O)oc3)CC[C@]12O` the mRNA level was 1.76 and 1.66 and 2.07 (MCF7; RT-qPCR, refers to: NRIP1; 20 nM, 48 h, unit not given, with: estradiol; relative to: untreated).
The selectivity index of `Cc1n[nH]c(C)c1CSC1CCCCC1` is reported as 1.6 (U-937; cytotoxicity; relative to: IC50 HEK293 over IC50 U-937).

Some of these lines once more:
`COc1cc(CCC[P+](c2ccccc2)(c2ccccc2)c2ccccc2)c(OC)c2c1OCO2.[I-]` has an LC50 of -4.22 log M (HOP-62; SRB).
`Nc1ncc(-c2nc(N3CCOCC3)nc(N3CCOCC3)n2)c(C(F)F)n1` gave a GI50 of 172 nM (SK-N-AS; 72 h).
Under “mRNA fold change”, `CCOC(=O)C1=C(N)N(c2ccc(C(=O)OCC)cc2)C(O)=C(C#N)C12C(=O)Nc1ccccc12` (stereo not drawn) is recorded as 0.275 (Caco-2; qRT-PCR, refers to: Bcl-2; IC50; relative to: untreated).
With `C[C@]12CC[C@H](O)C[C@H]1CC[C@@H]1[C@@H]2CC[C@]2(C)[C@@H](c3ccc(=O)oc3)CC[C@]12O` the mRNA level was 1.76 and 1.66 and 2.07 (MCF7; RT-qPCR, refers to: NRIP1; 20 nM, 48 h, unit not given, with: estradiol; relative to: untreated).
